Measurements of several laboratories.
Compare with care: the assays were run in different laboratories. Several values in a cell are separate wells, animals, samples, runs or records. ± marks the error that the study gave.

For Cn1cc(Nc2nccc(-c3ccc4c(c3)CN(C3COC3)CC[C@H]4NC(=O)c3cn(C(C)(C)C)nn3)n2)cn1, “pathway activation z-score” read -0.365 (mouse splenic B cells; item: Necroptosis signalling pathway; 30 mg/kg, IgD-activated in vivo; reference: vehicle, direction not given).
O=C(COc1cccc2c1C(=O)N(C1CCC(=O)NC1=O)C2=O)NCCOCCOCCNS(=O)(=O)Nc1cccc(-c2cn3cc(C(=O)NC4CCC4)ccc3n2)c1 (centres unmarked) — result for “log2 fold change”: 0.032 (MV4-11; TMT proteomics, item: NAA38 protein; 10 µM, 4 h; reference: DMSO).
CCn1c(=O)/c(=C2\Sc3ccccc3N2C)s/c1=C\c1cccc[n+]1CC.[Cl-] — result for “fitted top MyBP-C level”: 76% (iPSC-derived cardiomyocytes; concentration-response fit; concentration not given; reference: vehicle).
With CCn1cc(-c2cc(Cn3ccoc3=N)cc3c2CCN([C@@H](C)c2cc(OC)ccn2)C3=O)c(C(F)(F)F)n1 the EC50 was 0.854 µM (JHH7; cell growth, inhibitor; 120 h).
O=C(/C=C/C=C/C=C/C1CCCCC1)NC1=C[C@@](O)(/C=C/C=C/C=C/C(=O)NC2=C(O)CCC2=O)[C@@H]2O[C@@H]2C1=O has a GI50 of 20.8 µM (WM793; cell growth, CellTiter-Glo; 78 h).
With COc1c(O[C@@H]2O[C@H](CO)[C@@H](O)[C@H](O)[C@H]2O)c(C)cc2c1C(=O)c1c(O)cccc1C2=O the cell viability was 71.7 ± 7.66% (HepaRG co-cultured with HK-2; MTT; 33.33 µM, 48 h; reference: untreated control).
The EC50 of CCn1cc(-c2cc(Cn3ccnc3)cc3c2CCN([C@H](c2cc(OC)ccn2)C2CC2)C3=O)c(C(F)(F)F)n1 is reported as over 30 µM (KG-1; cell growth, inhibitor; 120 h).
NC(=O)c1cnc2[nH]ccc2c1N[C@@H]1[C@@H]2CC3C[C@H]1C[C@@](O)(C3)C2 gave a percent change of 2.35% (CD4+ CD28+ naive T cells, flow cytometry; Japanese humans, peripheral blood; 200 mg single dose; reference: baseline).
Clc1ccc(C2(c3ccc(-c4cn[nH]c4)cc3)CCNCC2)cc1 has a pERK level of 321 (CLL cells, patient; flow cytometry, MFI; human; 10 µM, 24 h).
For CC(C(=O)Nc1cccc(/N=C/c2c(O)ccc3ccccc23)c1)c1ccccc1 (centres unmarked), the viability was 199% (OCI-Ly1; 0.1 µM, 120 h).
The GR50 of Cc1nc(NC(=O)N2CCC[C@H]2C(N)=O)sc1-c1ccnc(C(C)(C)C(F)(F)F)c1 is reported as 516 nM (HCC1954; resazurin growth rate inhibition; 72 h).
With Cc1cc(Nc2ccc(NC(=O)c3ccc(Nc4ccnc5ccccc45)cc3)cc2)nc(N)n1 the viability was 88.5% (OCI-Ly1; 0.1 µM, 120 h).
COc1cc2ncnc(Nc3ccc(Oc4ccccc4)cc3C)c2cc1OC.O=C(O)C(F)(F)F has a fractional effect of 0.379 and 0.397 (COLO 205 (BRAF V600E); 3 µM, with: trametinib 0 nM).
C[C@H]1[C@H](C)CC[C@]2(C)CC[C@]3(C)C(=CC(=O)[C@@H]4[C@@]5(C)CC[C@@H](O)[C@](C)(C(=O)NCc6cn(-c7cccc(Br)c7)nn6)[C@@H]5CC[C@]43C)[C@H]12 — result for “PD-1 positive cells”: 8.23% (human PBMCs; flow cytometry; 10 µM; reference: CD8- T cells).
For Nc1ccn([C@@H]2O[C@H](CO)[C@@H](O)C2(F)F)c(=O)n1, the viability was 1.99% (OCI-Ly1; 0.1 µM, 120 h).
For CC(C)[C@H](N)C(=O)N1CCC[C@H]1B(O)O, “late apoptotic cells” read 30.9% (MV4-11; annexin V/PI flow cytometry, item: annexin V+ PI+; 2 µM, 24 h).
For O=c1[nH]nc(OCCCc2ccc(Cl)cc2)c(NCc2cccnc2)c1Br, “normalized enrichment score” read -0.854 (HEK-293T; RNA-seq GSEA, item: Hallmark bile acid metabolism; concentration not given; direction not given).
Under “log2 fold change”, Oc1ccccc1-c1n[nH]cc1-c1ccnc2ccccc12 is recorded as -0.43 (KIN28 (Candida albicans); kinase binding, MIB/MS competition; Candida albicans lysate; 10 µM; reference: DMSO).
CC(C)C[C@H](NC(=O)C[C@H](O)[C@H](CC(C)C)NC(=O)[C@H](Cc1c[nH]cn1)NC(=O)CNC(=O)[C@@H](NC(=O)[C@H](C)NC(=O)[C@H](Cc1c[nH]c2ccccc12)NC(=O)[C@H](CCC(N)=O)NC(=O)[C@@H](Cc1ccccc1)NC(=O)COCCOCCNC(=O)CCC(C(=O)O)N1CCN(CC(=O)O)CCN(CC(=O)O)CCN(CC(=O)O)CC1)C(C)C)C(N)=O (some centres unmarked) [lutetium-177 labelled] has a tissue uptake of 8.2 ± 1.4 %ID/g (BALB/c nu/nu mice, PC-3 xenograft tumour; 500 pmol, 1 h, with: PA 300 µg).
CC/C(=N\NC(=O)NCc1cccc(O)c1)c1ccc(O)c(C)c1O gave a protein level of 2.12 ± 1.02 (SK-OV-3; Western blot, item: TAZ; 10 µM, 6 h, 3D gellan gum culture, unit not given; reference: β-actin).
COc1cc(NC(C)CCCN)c2ncccc2c1 (centres unmarked) has an EC50 of 19.7 µM (iPSC-derived cardiomyocytes; concentration-response curve, item: MyBP-C/MYH ratio; 24 h).
For Cc1nc2cc(NCc3ccc(F)cc3)ccc2s1, “reduction in viability” read 2% (sample A patient iPSC-derived NPCs; MTS; 10 µM, 24 h).
CCNC(=O)c1noc(-c2cc(C(C)C)c(O)cc2O)c1-c1ccc(CN2CCOCC2)cc1: “fitted bottom MyBP-C level” 32.6% (iPSC-derived cardiomyocytes; concentration-response fit; concentration not given; reference: vehicle).
O=C(Nc1ccccc1OS(=O)(=O)c1ccc(F)cc1)c1ccc2ncccc2c1 gave a dead cells of 25% (P2X7R-transfected MCF7; propidium iodide flow cytometry; 5 µM, 18 h, with: Bz-ATP; reference: control).
The toxicity of COc1ccc(-n2nc(C(C)=O)s/c2=N\N=C(/C)c2ccc(NC(=O)c3ccc(Cl)cc3)cc2)cc1 is reported as 94.1% (HepG2; 2.5 µM).
For Cn1cc(-n2cnc3c(NCc4nc5cc(Cl)c(Cl)cc5[nH]4)nc(N4CCOCC4)nc32)cn1, the mRNA level was 0.814 and 0.741 and 0.674 (MDA-MB-231; qRT-PCR, item: SMARCC2; 0.05 µM, 6 h, unit not given; reference: DMSO).
CCN1CCN(c2cc(N3CCN(CC)CC3)nc(NCCNc3ccnc4cc(Cl)ccc34)n2)CC1 gave a metabolic activity of 0.2 ± 0.11 (COS-7; WST-8; 30 µM, 24 h, 0.1% DMSO, unit not given; reference: vehicle control).
COc1cc2c(NC3CCN(C)CC3)nc(N3CCCN(C)CC3)nc2cc1OCCCN(C)C has a viability of 153% (OCI-Ly1; 1 µM, 120 h).
Cc1cccc(-c2[nH]c(CNc3ccccc3F)nc2-c2ccc3ncnn3c2)n1 has an XTT absorbance of 4.4 E-1 and 6.3 E-1 and 4.2 E-1 (pomalidomide-resistant MM1.S cells; XTT; 0.25 µM; higher = more viable cells).
COc1cnc2cccc(N3CCc4c(cc(Cn5ccnc5C)cc4-c4cn(C)nc4C(F)(F)F)C3=O)c2c1 gave an EC50 of 0.0119 µM (G-361; cell growth, inhibitor; 120 h).
NC(=O)[C@H](CCCN=C(N)CCl)NC(=O)c1ccccc1 has a viability of 137% (OCI-Ly1; 0.5 µM, 120 h).
CN(C)c1ccc(C(=C2C=CC(=[N+](C)C)C=C2)c2ccc(N(C)C)cc2)cc1 — result for “fitted bottom MyBP-C/MYH ratio”: 0% (iPSC-derived cardiomyocytes; concentration-response fit; reference: vehicle).
Under “concentration for maximal inhibition”, CN(Cc1cnc2nc(N)nc(N)c2n1)c1ccc(C(=O)N[C@@H](CCC(=O)O)C(=O)O)cc1 is recorded as about 1 µM (WA09 MTHFR C677T(+/-) forebrain rosette tissues; single rosette emergence).
CC(C)NCC(O)c1ccc(O)c(O)c1 (centres unmarked) gave a sarcomere length of 1.8 µm (mouse ventricular cardiomyocytes; dose not given, 0.019 s).
With [Cl-].[Cl-].[Ru+2].c1cnc2c(c1)ccc1cccnc12.c1cnc2c(c1)ccc1cccnc12.c1csc(-c2ccc(-c3ccc(-c4ccc(-c5nc6c7cccnc7c7ncccc7c6[nH]5)s4)s3)s2)c1 the phototherapeutic index was about 10 (SK-MEL-28; normoxia, with: 523 nm light, 100 J/cm2).
With CCOc1ccc(-c2nc3cc(-c4nc5cc(N6CCN(C)CC6)ccc5[nH]4)ccc3[nH]2)cc1OCC the growth percent was 22.3% (786-0; cell growth, NCI-60 SRB; 10 µM, 48 h).
For CSc1nc(-c2ccc(Cl)cc2)c2c(NC(=O)c3ccccc3)nnc-2[nH]1, the growth percent was 95.3% (786-0; NCI60 SRB; 10 µM).
COc1cccc(-c2ccc(NC(=O)C3=C(C(=O)O)CCC3)c(F)c2)c1 gave a necrotic cells of 0.92 ± 0.4 (COS-7; 10 µM, 24 h, 0.1% DMSO, unit not given; reference: vehicle control).
For O=C(O)CCCc1ccccc1, the viability was 154% (OCI-Ly1; 1 µM, 120 h).
Cn1cc(-c2ccc(-c3cncc(Cl)c3N3CCC4(CCNC4=O)CC3)cc2)cn1 — result for “log2 fold change”: 3.25 (COLO 205; gene expression, microarray, item: CBS mRNA; concentration not given, 2 h; reference: untreated cells).
The mRNA level of COc1cc(/C=C/C(=O)N2CCC=CC2=O)cc(OC)c1OC is reported as 83.9 ± 1.8% (MDA-MB-468; quantitative RT-PCR, item: IDH2; 30 µM, 8 h; reference: untreated cells).
Cn1c(Nc2nc3ccc(C(F)(F)F)cc3s2)nc2cc(C(=O)NCCOCCO)ccc21 gave a fold change of 1.62 (SH-SY5Y; RNA-seq, item: HSPB7 mRNA; 5 µM, 5 h; reference: untreated cells).
Under “log2 fold change”, Cc1cc(Nc2ncc(Cl)c(Nc3ccccc3S(=O)(=O)C(C)C)n2)c(OC(C)C)cc1C1CCNCC1 is recorded as -2.14 (CLB-GE; phosphoproteomics LC-MS/MS, item: SHC2 phosphorylation; 200 nM, 60 min; reference: untreated).
The viability of Nc1ncnc2c1ncn2[C@@H]1O[C@H](CSCC[C@H](N)C(=O)O)[C@@H](O)[C@H]1O is reported as 161% (OCI-Ly1; 0.5 µM, 120 h).
For Cc1ncsc1-c1ccc([C@H](C)NC(=O)[C@H]2C[C@H](O)CN2C(=O)[C@@H](NC(=O)CCCCCCCCCNC(=O)c2ccc3c(c2)[C@H](NC(=O)c2cc(-c4ccc(C(=O)N(C)C)c(O)c4)on2)CC3)C(C)(C)C)cc1, “log2 fold change” read -0.344 (MV4-11; TMT proteomics, item: MLKL protein; concentration not given, 6 h; reference: DMSO).
C=C1C(=O)O[C@@H](CCC)[C@@H]1C(=O)O (racemic) gave a viability of 185% (OCI-Ly1; 0.1 µM, 120 h).
COc1c(O[C@@H]2O[C@H](CO)[C@@H](O)[C@H](O)[C@H]2O)cc2c(c1O)C(=O)c1c(cc(C)c(O)c1OC)C2=O has a cell viability of 44 ± 9.9% (HepaRG co-cultured with HK-2; MTT; 266.67 µM, 24 h; reference: untreated control).

Some of these lines once more:
Under “log2 fold change”, Cc1cc(Nc2ncc(Cl)c(Nc3ccccc3S(=O)(=O)C(C)C)n2)c(OC(C)C)cc1C1CCNCC1 is recorded as -2.14 (CLB-GE; phosphoproteomics LC-MS/MS, item: SHC2 phosphorylation; 200 nM, 60 min; reference: untreated).
The viability of Nc1ncnc2c1ncn2[C@@H]1O[C@H](CSCC[C@H](N)C(=O)O)[C@@H](O)[C@H]1O is reported as 161% (OCI-Ly1; 0.5 µM, 120 h).
For Cc1ncsc1-c1ccc([C@H](C)NC(=O)[C@H]2C[C@H](O)CN2C(=O)[C@@H](NC(=O)CCCCCCCCCNC(=O)c2ccc3c(c2)[C@H](NC(=O)c2cc(-c4ccc(C(=O)N(C)C)c(O)c4)on2)CC3)C(C)(C)C)cc1, “log2 fold change” read -0.344 (MV4-11; TMT proteomics, item: MLKL protein; concentration not given, 6 h; reference: DMSO).
C=C1C(=O)O[C@@H](CCC)[C@@H]1C(=O)O (racemic) gave a viability of 185% (OCI-Ly1; 0.1 µM, 120 h).
